Measurements from different studies.
Values joined by “and” are separate records of one study, mostly repeats; a detail may differ. Numbers after ± are the reported error. ≈ marks a conversion by molar mass, not a printed value.
Sequence of UniProt Q12866 (whole entry, looked up): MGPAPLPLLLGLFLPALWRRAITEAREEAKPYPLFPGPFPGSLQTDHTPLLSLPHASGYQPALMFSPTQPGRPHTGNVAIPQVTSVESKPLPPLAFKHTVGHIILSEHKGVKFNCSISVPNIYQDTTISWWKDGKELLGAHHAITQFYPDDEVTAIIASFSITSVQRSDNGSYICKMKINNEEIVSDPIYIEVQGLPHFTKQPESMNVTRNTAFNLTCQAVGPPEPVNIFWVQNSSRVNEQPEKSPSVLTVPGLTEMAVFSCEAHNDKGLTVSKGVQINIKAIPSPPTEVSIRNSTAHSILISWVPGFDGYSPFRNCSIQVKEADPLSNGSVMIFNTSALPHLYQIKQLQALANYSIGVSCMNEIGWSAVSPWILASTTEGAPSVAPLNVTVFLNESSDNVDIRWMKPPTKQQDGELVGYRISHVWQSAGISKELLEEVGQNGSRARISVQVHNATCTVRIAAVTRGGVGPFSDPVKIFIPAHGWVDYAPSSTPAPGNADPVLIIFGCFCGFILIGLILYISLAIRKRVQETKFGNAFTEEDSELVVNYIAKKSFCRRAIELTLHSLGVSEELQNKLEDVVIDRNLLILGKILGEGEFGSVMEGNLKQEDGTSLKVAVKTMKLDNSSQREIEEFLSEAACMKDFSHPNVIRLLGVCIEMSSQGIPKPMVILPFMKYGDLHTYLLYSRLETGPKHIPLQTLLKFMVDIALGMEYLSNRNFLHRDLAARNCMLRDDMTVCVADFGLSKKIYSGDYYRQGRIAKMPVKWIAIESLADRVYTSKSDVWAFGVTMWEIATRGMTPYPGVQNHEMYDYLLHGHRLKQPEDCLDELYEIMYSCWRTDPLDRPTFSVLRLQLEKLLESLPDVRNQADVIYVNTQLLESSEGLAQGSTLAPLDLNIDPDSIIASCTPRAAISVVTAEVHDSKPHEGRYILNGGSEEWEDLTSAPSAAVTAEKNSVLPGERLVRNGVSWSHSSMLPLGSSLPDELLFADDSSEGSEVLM
Sequence of UniProt Q61205 (whole entry, looked up): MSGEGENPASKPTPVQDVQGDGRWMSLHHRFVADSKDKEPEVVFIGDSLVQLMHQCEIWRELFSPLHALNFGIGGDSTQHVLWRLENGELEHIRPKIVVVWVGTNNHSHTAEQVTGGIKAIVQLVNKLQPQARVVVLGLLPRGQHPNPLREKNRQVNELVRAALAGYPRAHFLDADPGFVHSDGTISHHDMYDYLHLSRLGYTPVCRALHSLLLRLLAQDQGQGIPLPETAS
Sequence of UniProt Q13233 (whole entry, looked up): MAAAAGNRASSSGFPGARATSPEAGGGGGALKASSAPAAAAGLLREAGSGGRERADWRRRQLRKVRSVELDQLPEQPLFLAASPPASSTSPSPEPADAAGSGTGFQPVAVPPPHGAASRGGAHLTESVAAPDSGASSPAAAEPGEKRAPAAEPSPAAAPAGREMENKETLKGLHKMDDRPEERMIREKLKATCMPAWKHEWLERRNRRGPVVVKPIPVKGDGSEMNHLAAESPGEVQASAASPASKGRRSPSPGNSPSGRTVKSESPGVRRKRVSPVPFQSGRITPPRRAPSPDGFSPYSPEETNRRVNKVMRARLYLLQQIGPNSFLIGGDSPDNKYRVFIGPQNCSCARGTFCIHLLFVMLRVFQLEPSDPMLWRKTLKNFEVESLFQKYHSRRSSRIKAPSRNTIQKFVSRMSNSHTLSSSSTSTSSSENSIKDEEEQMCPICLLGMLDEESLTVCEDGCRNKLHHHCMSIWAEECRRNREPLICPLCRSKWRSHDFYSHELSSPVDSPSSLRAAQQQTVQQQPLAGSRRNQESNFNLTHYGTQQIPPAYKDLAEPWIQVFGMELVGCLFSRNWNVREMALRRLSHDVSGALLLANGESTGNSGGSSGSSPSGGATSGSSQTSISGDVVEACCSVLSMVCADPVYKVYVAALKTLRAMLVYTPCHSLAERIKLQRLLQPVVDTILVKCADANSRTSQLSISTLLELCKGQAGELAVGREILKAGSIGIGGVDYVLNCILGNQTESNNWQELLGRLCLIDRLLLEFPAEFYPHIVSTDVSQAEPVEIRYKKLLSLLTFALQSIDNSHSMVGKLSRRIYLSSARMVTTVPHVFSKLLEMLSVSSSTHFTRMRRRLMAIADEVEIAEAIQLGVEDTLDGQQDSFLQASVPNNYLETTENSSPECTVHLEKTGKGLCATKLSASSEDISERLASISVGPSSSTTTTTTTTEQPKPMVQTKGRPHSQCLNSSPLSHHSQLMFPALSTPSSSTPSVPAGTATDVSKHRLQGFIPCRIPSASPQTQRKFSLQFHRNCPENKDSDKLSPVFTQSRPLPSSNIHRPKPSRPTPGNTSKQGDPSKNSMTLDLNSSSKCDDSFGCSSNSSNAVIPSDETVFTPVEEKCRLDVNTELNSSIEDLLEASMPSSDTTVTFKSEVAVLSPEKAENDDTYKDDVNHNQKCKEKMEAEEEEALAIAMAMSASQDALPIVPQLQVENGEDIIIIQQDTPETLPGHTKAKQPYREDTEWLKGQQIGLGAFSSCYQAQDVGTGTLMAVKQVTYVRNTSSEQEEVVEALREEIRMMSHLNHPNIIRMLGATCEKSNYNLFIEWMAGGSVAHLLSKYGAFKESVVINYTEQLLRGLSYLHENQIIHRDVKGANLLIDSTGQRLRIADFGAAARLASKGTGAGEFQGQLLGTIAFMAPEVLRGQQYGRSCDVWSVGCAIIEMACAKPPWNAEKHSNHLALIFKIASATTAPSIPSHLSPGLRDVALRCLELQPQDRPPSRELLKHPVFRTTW
Sequence of UniProt P49840 (whole entry, looked up): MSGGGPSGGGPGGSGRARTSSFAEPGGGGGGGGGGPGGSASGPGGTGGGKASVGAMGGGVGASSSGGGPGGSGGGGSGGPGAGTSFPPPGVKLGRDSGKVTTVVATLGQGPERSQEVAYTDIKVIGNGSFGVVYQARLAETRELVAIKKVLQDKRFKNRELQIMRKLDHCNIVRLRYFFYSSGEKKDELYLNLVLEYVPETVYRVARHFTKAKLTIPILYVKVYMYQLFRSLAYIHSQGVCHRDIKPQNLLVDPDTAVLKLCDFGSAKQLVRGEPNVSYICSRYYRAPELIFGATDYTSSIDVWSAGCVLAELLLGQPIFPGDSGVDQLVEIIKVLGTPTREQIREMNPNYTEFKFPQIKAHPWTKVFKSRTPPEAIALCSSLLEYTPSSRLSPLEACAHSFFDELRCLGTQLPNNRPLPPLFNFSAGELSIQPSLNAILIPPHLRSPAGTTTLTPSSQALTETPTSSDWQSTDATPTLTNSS

SMILES	target or system	test	system	conditions	scale	measurement	result
CN(C)[C@H]1C[C@@]23CC[C@@]4(O2)C(=CC[C@]2(C)[C@@H](c5ccc6ccncc6c5)CC[C@H]24)C=C3[C@@H](O)[C@@H]1O	MAP3K1 (Homo sapiens, UniProt Q13233)	ATP probe labelling, inhibitor, KiNativ profiling	–	1 µM	–	inhibition	4.7%
CCN(Cc1ccccc1)C(=O)CCc1nc(CN2CCN(C(=O)Cc3ccc(OC)c(OC)c3)CC2)no1	–	beam walking test	mouse, CCI neuropathic pain model	1 mg/kg	–	beam crossing time	8.09 ± 0.055 s
COc1ccccc1-c1n[nH]c2nc(NC3CCN(C(=O)Cc4ccc(F)cc4F)CC3)ncc12	–	bead binding, competition bead pull-down, refers to: LINJ.22.0350	Leishmania donovani axenic amastigote extract	10 µM	relative to: vehicle	relative abundance	1.1
O=C(O)c1ccc(-c2nc(-c3ccccc3Cl)c3sccn23)cc1	–	–	C57BL/6 mice	dose not given, day 17, basal hematopoiesis	–	platelet count change	134% and 157% and 106%
CC(C)CC(O)(CC(C)C)c1cn(C(=O)N2CCCC2)nn1	Platelet-activating factor acetylhydrolase IB subunit alpha1 (Pafah1b3, Mus musculus, UniProt Q61205)	probe labelling, inhibitor, competitive ABPP-SILAC, refers to: Pafah1b3	mouse T cells	concentration not given, 4 h, protein level	relative to: treated over DMSO cells, lower = stronger inhibition	median SILAC activity ratio	1.22
CC[C@H](C)[C@H](NC(=O)[C@H](CCCNC(=N)N)NC(=O)[C@H](CO)NC(=O)[C@H](Cc1ccc(O)cc1)NC(=O)[C@@H](NC(=O)[C@@H](NC(=O)[C@H](C)NC(=O)CNC(=O)[C@H](CCCCN)NC(=O)[C@H](CCCCN)NC(=O)CCNC(=O)CCCCCNC(=O)[C@H](CCCNC(=N)N)NC(=O)CCCCCNC(=O)[C@H](CCCNC(=N)N)NC(=O)[C@H](CCCNC(=N)N)NC(=O)CCCCCNC(=O)[C@H](CCCNC(=N)N)NC(=O)[C@H](CCCNC(=N)N)NC(=O)CCCCCNC(=O)[C@H](CCCNC(=N)N)NC(=O)[C@H](CCCNC(=N)N)NC(=O)CCCCCNC(=O)[C@@H](N)CCCNC(=N)N)C(C)C)[C@@H](C)O)C(=O)N[C@@H](CO)C(=O)NCC(=O)N[C@@H](CCC(N)=O)C(=O)N[C@@H](Cc1ccc(O)cc1)C(=O)N[C@@H](CCCCN)C(=O)O	–	broth microdilution	BAA-2469, NDM-1 producing, Mueller-Hinton broth	–	–	MIC	12 µM (≈ 42.9 µg/mL)
O=P(O)(O)Oc1c2c(c(OP(=O)(O)O)c3c1C1CC3c3cc4ccccc4cc31)C1CC2c2cc3ccccc3cc21	–	1H NMR titration, refers to: choline N-methyl signal	methanol-d4	added: sphingomyelin	–	association constant	166 ± 30 M⁻¹
Cc1ccc(C2=CC(C)(C)Oc3ccc(-c4ccc(-c5ccc(C(=O)O)cc5)[nH]4)cc32)cc1	–	–	CD1 mouse, male	10 mg/kg, 0 week after end of treatment, dosed for 4 weeks	–	cauda epididymal sperm count	3.4 and 5.4 and 12.2 and 3.3 and 2.8
CC(C)(C)C(=O)OCOP(=O)(OCOC(=O)C(C)(C)C)C1CCCN(O)C1=O (stereo not shown)	PC-3	–	–	–	–	TGI	> 100 µM
Cc1cc(O)cc(C)c1C[C@H](N)C(=O)N[C@H](CCCNC(=N)N)C(=O)N[C@@H](Cc1ccccc1)C(=O)N[C@@H](CCCCN)C(=O)NCCCCCCNC(=O)[C@H](Cc1ccccc1)NC(=O)[C@H](CC1CCCCC1)NC[C@@H]1Cc2ccccc2CN1C(=O)[C@@H](N)Cc1ccc(O)cc1	–	agonist	guinea pig ileum	–	–	IC50	0.261 ± 0.033 µM
CS(C)(=O)=Nc1ccc(-c2ccc(-c3nc4cc(O[C@@H]5CO[C@H]6[C@@H]5OC[C@H]6O)[nH]c4cc3F)cc2)cc1	PRKDC (Homo sapiens, UniProt P78527)	enzyme activity, inhibitor	–	10 µM	–	inhibition	7%
CC(C)C[C@H](NC(=O)[C@H](Cc1ccccc1)NC(=O)CNC(=O)CNC(=O)[C@@H](N)Cc1ccc(O)cc1)C(=O)O	–	[3H]deltorphin II uptake, inhibitor	rabbit, cells	15 min, NaCl-containing medium	–	IC50	8.8 ± 2.2 µM
Cc1cc(Oc2nc(N3CC[C@@H](c4ccncc4)C3)ncc2F)[nH]n1	A204	cell proliferation	muscle cancer	–	–	IC50	36.3 µM
CC(C)C[C@@H]1NC(=O)[C@@H](Cc2c[nH]c3ccccc23)NC(=O)[C@H](CCCNC(=N)N)NC(=O)[C@@H](CCC(=O)O)NC(=O)[C@H](CCC(N)=O)NC(=O)[C@@H](CCC(=O)O)NC(=O)[C@H](CCCNC(=N)N)NC(=O)[C@@H](Cc2c[nH]c3ccccc23)NC1=O	–	Luminex, refers to: IL-12p40	LDLr-/- mice, Western diet, liver	dose not given, 4 weeks	–	cytokine level	200 ± 78 pg/g tissue
Cc1ccc(S(=O)(=O)N2CC2C(=O)N(C)C)cc1 (stereo not shown)	–	–	mouse, Lewis lung carcinoma	intraperitoneal, 170 mg/kg, 16 doses, day 9	–	tumour volume	371 mm3
Cc1cc(O)cc(C)c1C[C@H](N)C(=O)N[C@H](CCCNC(=N)N)C(=O)N[C@@H](Cc1ccccc1)C(=O)N[C@@H](CCCCN)C(=O)NCCNC(=O)[C@@H]1Cc2ccccc2CN1C(=O)[C@@H](N)Cc1c(C)cc(O)cc1C	–	agonist	guinea pig ileum	–	–	IC50	0.284 ± 0.032 µM
CC(C)C[C@H](NC(=O)[C@H](CCC(=O)O)NC(=O)[C@H](Cc1ccccc1)NC(=O)[C@@H]1CCCN1C(=O)CNC(=O)OCc1ccccc1)C(=O)N[C@@H](CCC(=O)O)C(=O)N[C@@H](CCCNC(=N)N)C(=O)N[C@@H](CCCNC(=N)N)C(=O)N[C@@H](Cc1ccccc1)C(=O)N[C@@H](CCCCN)C(=O)N[C@@H](CCC(N)=O)C(=O)N[C@@H](CCC(N)=O)C(=O)O	–	–	mouse xenograft, orthotopic tumour	dose not given	–	perfusion fraction f	0.117 and 0.118 and 0.114
COC(=O)C1CN1S(=O)(=O)c1ccc(C)cc1 (stereo not shown)	–	–	mouse Lewis lung carcinoma	intraperitoneal, 100 mg/kg, day 16	–	tumour growth inhibition	56%
Cc1n[nH]c(C)c1CCCOc1cc(C(=O)NCCCCC(NC(=O)CN2CCN(CC(=O)[O-])CCN(CC(=O)[O-])CCN(CC(=O)[O-])CC2)C(=O)NCC2CCC(C(=O)NC(Cc3ccc4ccccc4c3)C(=O)NCCCCC(NC(=O)NC(CCC(=O)O)C(=O)O)C(=O)O)CC2)ccc1F.[177Lu+3] (stereo not shown)	–	–	mouse 22Rv1 xenograft	intravenous, 14.8 MBq	–	tumour growth inhibition	88.4%
O=C1NC2(CC2)COc2ncc(F)cc2[C@H]2COCCN2c2ccn3ncc1c3n2	–	–	Sprague-Dawley rat, male, serum	oral, 20 mg/kg/day, end of treatment, 4-week subacute toxicity	–	serum hepatic lipase activity	3.5 ± 0.5 U/L
CC[C@H](C)[C@H](NC(=O)[C@H](CO)NC(=O)[C@H](Cc1ccc(O)cc1)NC(=O)[C@H](Cc1ccc(O)cc1)NC(=O)[C@H](CC(N)=O)NC(=O)CNC(=O)[C@H](CO)NC(=O)[C@H](Cc1ccc(O)cc1)NC(=O)[C@H](CO)NC(=O)[C@H](CO)NC(=O)[C@H](CC(N)=O)NC(=O)COCCOCCNC(=O)CN1CCN(CC(=O)O)CCN(CC(=O)O)CCN(CC(=O)O)CC1)C(=O)N[C@@H](CC(C)C)C(N)=O [copper-64 labelled]	–	dynamic PET	KPC mouse Ptf1a-CreER tdTomato, pancreas	intravenous, 4.6 MBq/mouse, 9.5 min, 84 d after tamoxifen	–	tissue uptake	12.8 %ID/mL
CCCCCC1=C(NCC)C(=O)C(C/C=C(\C)CCC=C(C)C)=C(O)C1=O	–	RNA-seq, refers to: Irf9 regulon	mouse, striatum	dose not given	direction not given	normalised enrichment score	2.42
COc1ccccc1-c1n[nH]c2nc(N[C@H]3CC[C@H](NS(=O)(=O)CC(C)C)CC3)ncc12	–	bead binding, competition bead pull-down, refers to: LINJ.26.1590	Leishmania donovani extract	10 µM	relative to: vehicle	relative abundance	1.03
COC(=O)[C@@H](NC(=O)c1nn(Cc2ccc(F)cc2)c2cc(OCCCCNC(=N)N)ccc12)C(C)(C)C	–	–	mouse chronic NTG headache model	intraperitoneal, 1 mg/kg, post-treatment	–	cephalic allodynia	decreased
CCCC[C@@H]1NC(=O)[C@H](Cc2ccc(O)cc2)NC(=O)[C@@H]2CCCN2C(=O)[C@H](CC(=O)O)NC(=O)[C@H](C)NC(=O)[C@H](Cc2ccccc2)NC(=O)[C@@H]2CSCCC(=O)N3CN(CN(C3)C(=O)CCSC[C@@H](C(=O)N[C@@H](C)C(N)=O)NC1=O)C(=O)CCSC[C@H](NC(C)=O)C(=O)N[C@@H](CC(C)(C)C)C(=O)N1CCC[C@H]1C(=O)N[C@@H](CCC(=O)O)C(=O)N[C@H](CCCCNC(=O)CCc1cn(CCOCCOCCOCCN(CCOCCOCCOCCC(=O)N[C@H]3CSCCC(=O)N4CN5CN(C4)C(=O)CCSC[C@H](NC(=O)[C@@H](CC(=O)O)NC(=O)[C@H](Cc4cccc6ccccc46)NC(=O)[C@@H]4CCCN4C3=O)C(=O)N[C@@H](CCSC)C(=O)N[C@@H](CCCCNC(=N)N)C(=O)N[C@@H](CC(=O)O)C(=O)N[C@@H](Cc3c[nH]c4ccccc34)C(=O)N[C@@H](CO)C(=O)N[C@@H]([C@@H](C)O)C(=O)N3CCC[C@H]3C(=O)N3C[C@H](O)C[C@H]3C(=O)N[C@@H](Cc3c[nH]c4ccccc34)C(=O)N[C@H](C(N)=O)CSCCC5=O)CCOCCOCCOCCn3cc(CCC(=O)NCCCC[C@H]4NC(=O)[C@H](CCC(=O)O)NC(=O)[C@@H]5CCCN5C(=O)[C@H](CC(C)(C)C)NC(=O)[C@@H](NC(C)=O)CSCCC(=O)N5CN6CN(C5)C(=O)CCSC[C@H](NC(=O)[C@H](Cc5ccc(O)cc5)NC(=O)[C@@H]5CCCN5C4=O)C(=O)N[C@@H](Cc4ccccc4)C(=O)N[C@@H](C)C(=O)N[C@@H](CC(=O)O)C(=O)N4CCC[C@H]4C(=O)N[C@@H](Cc4ccc(O)cc4)C(=O)N[C@@H](CCCC)C(=O)N[C@H](C(=O)N[C@@H](C)C(N)=O)CSCCC6=O)nn3)nn1)C(=O)N1CCC[C@H]1C(=O)N[C@@H](Cc1ccc(O)cc1)C(=O)N2	–	NanoString, refers to: Tab1 mRNA	mouse bearing MC38-Nectin-4 tumour, circulating white blood cells	5 mg/kg, 24 h, added: anti-CD137 0.2 mg/kg	relative to: vehicle	fold change	1.52
CC(C)[C@H]1NC(=O)C[C@H]2/C=C/CCSSC[C@@H](NC1=O)C(=O)N[C@H](Cc1cccc3ccccc13)C(=O)NCC(=O)O2	MERTK (Homo sapiens, UniProt Q12866)	enzyme activity, inhibitor	–	10 µM	–	inhibition	11.1%
O=C1NC(=O)c2c1c1cc(F)c[n+]3c1c1c2c2cc(O)ccc2[n]1[Ru-4]312([N]=C=S)[S+]3CC[S+]1CC[S+]2CC3 (stereo not shown)	GSK3A (Homo sapiens, UniProt P49840)	enzyme activity	–	100 nM, human enzyme, added: 10 µM ATP	relative to: untreated	remaining activity	20%
Cc1sc2c(c1C)C(c1ccc(-c3cccc(NC(=O)c4cnn5cccnc45)c3)cc1)=N[C@@H](CC(N)=O)c1nnc(C)n1-2	–	–	mouse, MV4-11 subcutaneous xenograft	5 mg/kg daily, 14 days	–	tumour growth inhibition	114%

Excerpt of the above:
SMILES	target or system	test	system	conditions	scale	measurement	result
Cc1n[nH]c(C)c1CCCOc1cc(C(=O)NCCCCC(NC(=O)CN2CCN(CC(=O)[O-])CCN(CC(=O)[O-])CCN(CC(=O)[O-])CC2)C(=O)NCC2CCC(C(=O)NC(Cc3ccc4ccccc4c3)C(=O)NCCCCC(NC(=O)NC(CCC(=O)O)C(=O)O)C(=O)O)CC2)ccc1F.[177Lu+3] (stereo not shown)	–	–	mouse 22Rv1 xenograft	intravenous, 14.8 MBq	–	tumour growth inhibition	88.4%
O=C1NC(=O)c2c1c1cc(F)c[n+]3c1c1c2c2cc(O)ccc2[n]1[Ru-4]312([N]=C=S)[S+]3CC[S+]1CC[S+]2CC3 (stereo not shown)	GSK3A (Homo sapiens, UniProt P49840)	enzyme activity	–	100 nM, human enzyme, added: 10 µM ATP	relative to: untreated	remaining activity	20%
CCCC[C@@H]1NC(=O)[C@H](Cc2ccc(O)cc2)NC(=O)[C@@H]2CCCN2C(=O)[C@H](CC(=O)O)NC(=O)[C@H](C)NC(=O)[C@H](Cc2ccccc2)NC(=O)[C@@H]2CSCCC(=O)N3CN(CN(C3)C(=O)CCSC[C@@H](C(=O)N[C@@H](C)C(N)=O)NC1=O)C(=O)CCSC[C@H](NC(C)=O)C(=O)N[C@@H](CC(C)(C)C)C(=O)N1CCC[C@H]1C(=O)N[C@@H](CCC(=O)O)C(=O)N[C@H](CCCCNC(=O)CCc1cn(CCOCCOCCOCCN(CCOCCOCCOCCC(=O)N[C@H]3CSCCC(=O)N4CN5CN(C4)C(=O)CCSC[C@H](NC(=O)[C@@H](CC(=O)O)NC(=O)[C@H](Cc4cccc6ccccc46)NC(=O)[C@@H]4CCCN4C3=O)C(=O)N[C@@H](CCSC)C(=O)N[C@@H](CCCCNC(=N)N)C(=O)N[C@@H](CC(=O)O)C(=O)N[C@@H](Cc3c[nH]c4ccccc34)C(=O)N[C@@H](CO)C(=O)N[C@@H]([C@@H](C)O)C(=O)N3CCC[C@H]3C(=O)N3C[C@H](O)C[C@H]3C(=O)N[C@@H](Cc3c[nH]c4ccccc34)C(=O)N[C@H](C(N)=O)CSCCC5=O)CCOCCOCCOCCn3cc(CCC(=O)NCCCC[C@H]4NC(=O)[C@H](CCC(=O)O)NC(=O)[C@@H]5CCCN5C(=O)[C@H](CC(C)(C)C)NC(=O)[C@@H](NC(C)=O)CSCCC(=O)N5CN6CN(C5)C(=O)CCSC[C@H](NC(=O)[C@H](Cc5ccc(O)cc5)NC(=O)[C@@H]5CCCN5C4=O)C(=O)N[C@@H](Cc4ccccc4)C(=O)N[C@@H](C)C(=O)N[C@@H](CC(=O)O)C(=O)N4CCC[C@H]4C(=O)N[C@@H](Cc4ccc(O)cc4)C(=O)N[C@@H](CCCC)C(=O)N[C@H](C(=O)N[C@@H](C)C(N)=O)CSCCC6=O)nn3)nn1)C(=O)N1CCC[C@H]1C(=O)N[C@@H](Cc1ccc(O)cc1)C(=O)N2	–	NanoString, refers to: Tab1 mRNA	mouse bearing MC38-Nectin-4 tumour, circulating white blood cells	5 mg/kg, 24 h, added: anti-CD137 0.2 mg/kg	relative to: vehicle	fold change	1.52
